Measurements gathered from unrelated publications.
Each line is one published result; not all experiments were run side by side. Numbers after ± are the reported error.
Cell line: MCF-10A

O=C(c1ccc2ccccc2c1)c1cn(-c2ccccc2)nc1C1=Nn2c(CCc3nnc4n3N=C(c3nn(-c5ccccc5)cc3C(=O)c3ccc5ccccc5c3)CS4)nnc2SC1 has an IC50 of 41.2 µM (cell growth or viability, MTT; 48 h).
The IC50 of C[n+]1ccn(CC(O)c2ccccc2)[c]1[Ag-][I] (centres unmarked) is reported as 71.7 µM (cell growth or viability, MTT; 72 h).
With O=[C]=[Re-2]1(=[C]=O)(=[C]=O)([O]C(=O)c2ccccc2Nc2cccc(C(F)(F)F)c2)[n+]2ccc(-c3ccccc3)c3ccc4c(-c5ccccc5)cc[n+]1c4c32 the IC50 was 3.68 µM (cell growth or viability, resazurin; 72 h).
NS(=O)(=O)c1ccc(/N=N/c2ccc(O)c(/C=N/c3cc([N+](=O)[O-])ccc3O)c2)cc1 has an IC50 of 4.42 µM (cell growth or viability, MTT; 72 h).
COc1ccccc1/C=N/NC(=O)c1cc2cc(Nc3nccc(-c4cccnc4)n3)ccc2[nH]1 has an IC50 of greater than 50 µM (cell growth or viability, MTT; 48 h).
N#C[CH2][Pd]1[O]c2ccc(Br)cc2C=Nc2cccnc2[N]1C1CCCCC1 has an IC50 of greater than 100 µM (cell growth or viability, MTT; 48 h).
CCC(C(=O)O)C1CCC(C)C(C(C)C(O)C(C)C(=O)C(CC)C2OC3(C=CC(NCc4cn(COC(=O)C(C)(C)C)nn4)C4(CCC(C)(C5CCC(O)(CC)C(C)O5)O4)O3)C(C)CC2C)O1 (centres unmarked) gave an IC50 of 6.06 µM (cell growth or viability, resazurin; 72 h).
With CCN(CC)c1ccc2c(c1)[O][Pd]([CH2]C#N)[N](c1ccccc1C)c1ncccc1N=C2 the IC50 was greater than 100 µM (cell growth or viability, MTT; 48 h).
Cc1cc(-c2ccccc2)c2ccc3c(-c4ccccc4)cc(C)[n+]4c3c2[n+]1[Re-2]4(=[C]=O)(=[C]=O)(=[C]=O)[O]C(=O)c1ccccn1 gave an IC50 of 6.31 µM (cell growth or viability, resazurin; 72 h).
NS(=O)(=O)c1ccc(/N=N/c2ccc(O)c(/C=N/CCc3c[nH]c4ccccc34)c2)cc1 has an IC50 of 10.5 µM (cell growth or viability, MTT; 48 h).
The IC50 of Clc1ccc2ccc3[n+](c2c1)[Ir-3]12([c]4ccccc4-3)([c]3ccccc3-c3ccc4ccc(Cl)cc4[n+]31)[n+]1ccccc1-c1cccc[n+]12.F[P-](F)(F)(F)(F)F is reported as 0.72 ± 0.02 µM (cell growth, MTT; 72 h).
N#C[CH2][Pd]1[O]c2ccccc2C=Nc2cccnc2[N]1Cc1ccccc1 has an IC50 of greater than 100 µM (cell growth or viability, MTT; 48 h).
With O=[C]=[Re-2]1(=[C]=O)(=[C]=O)([O]C(=O)c2ccccn2)[n+]2ccc(-c3ccccc3)c3ccc4c(-c5ccccc5)cc[n+]1c4c32 the IC50 was 3.02 µM (cell growth or viability, resazurin; 72 h).
For C=CC12COC(=O)C(=C)C1C1OC(=O)C(C)C1C(OC(=O)C(=C)CO)C2 (centres unmarked), the IC50 was 2 µM (cell growth or viability, MTT; 72 h).
With NS(=O)(=O)c1ccc(/N=N/c2ccc(O)c(/C=N/c3cccc(O)c3)c2)cc1 the IC50 was 9.63 µM (cell growth or viability, MTT; 72 h).
The IC50 of Cc1ccc(C(C)C)cc1.O=C(N=P(c1ccccc1)(c1ccccc1)c1ccccc1)c1ccccn1.[Cl-].[Cl][Ru+] is reported as 2.66 µM (cell growth or viability, resazurin; 24 h).
For Cc1cc(-c2ccccc2)c2ccc3c(-c4ccccc4)cc(C)[n+]4c3c2[n+]1[Re-2]4(=[C]=O)(=[C]=O)(=[C]=O)[O]C(=O)c1cccnc1, the IC50 was 6.38 µM (cell growth or viability, resazurin; 72 h).
With NS(=O)(=O)c1ccc(/N=N/c2ccc(O)c(C=O)c2)cc1 the IC50 was 18.7 µM (cell growth or viability, MTT; 48 h).
COc1cc(/C=N/NC(=O)c2cc3cc(Nc4nccc(-c5cccnc5)n4)ccc3[nH]2)cc(OC)c1 gave an IC50 of greater than 50 µM (cell growth or viability, MTT; 48 h).
The IC50 of O=C(c1ccc2ccccc2c1)c1cn(-c2ccccc2)nc1C1=Nn2c(CCCCc3nnc4n3N=C(c3nn(-c5ccccc5)cc3C(=O)c3ccc5ccccc5c3)CS4)nnc2SC1 is reported as 31.4 µM (cell growth or viability, MTT; 48 h).
The IC50 of O=C1CCCC2=C1C(c1cccs1)c1c([nH]c(=S)[nH]c1=S)O2 (centres unmarked) is reported as 57 µM (cell growth or viability, MTT; 72 h).
With CCC(C(=O)O)C1CCC(C)C(C(C)C(O)C(C)C(=O)C(CC)C2OC3(C=CC(NCc4cn(CCCCSC(C)=O)nn4)C4(CCC(C)(C5CCC(O)(CC)C(C)O5)O4)O3)C(C)CC2C)O1 (centres unmarked) the IC50 was 12.1 µM (cell growth or viability, resazurin; 72 h).
The IC50 of Cc1cc(=O)[nH]c2c(/N=N/c3ccccc3)c(O)c(/N=N/c3ccccc3)cc12 is reported as 101 µg/mL (cell growth or viability, MTT).
For NS(=O)(=O)c1ccc(/N=N/c2ccc(O)c(/C=N/c3nccs3)c2)cc1, the IC50 was 34.7 µM (cell growth or viability, MTT; 48 h).
CC(C)Cc1ccc(C(C)C(=O)[O][Re-2]2(=[C]=O)(=[C]=O)(=[C]=O)[n+]3ccc(-c4ccccc4)c4ccc5c(-c6ccccc6)cc[n+]2c5c43)cc1 (racemic) gave an IC50 of 1.47 µM (cell growth or viability, resazurin; 72 h).
With COC(Cn1ccn(C)[c]1=[Ag][O]C(C)=O)c1ccccc1 (centres unmarked) the IC50 was greater than 200 µM (cell growth or viability, MTT; 72 h).
CCC(C(=O)O)C1CCC(C)C(C(C)C(O)C(C)C(=O)C(CC)C2OC3(C=CC(NCc4cn(Cc5ccccc5)nn4)C4(CCC(C)(C5CCC(O)(CC)C(C)O5)O4)O3)C(C)CC2C)O1 (centres unmarked) gave an IC50 of 0.53 µM (cell growth or viability, resazurin; 72 h).
The IC50 of NS(=O)(=O)c1ccc(/N=N/c2ccc(O)c(/C=N/c3cc(Cl)ccc3O)c2)cc1 is reported as 12.2 µM (cell growth or viability, MTT; 48 h).
The IC50 of CCC(C(=O)O)C1CCC(C)C(C(C)C(O)C(C)C(=O)C(CC)C2OC3(C=CC(NCc4cn(CCOCCOCCOC)nn4)C4(CCC(C)(C5CCC(O)(CC)C(C)O5)O4)O3)C(C)CC2C)O1 (centres unmarked) is reported as greater than 12.5 µM (cell growth or viability, resazurin; 72 h).
With O=[C]=[Re-2]1(=[C]=O)(=[C]=O)([O]C(=O)c2cccnc2)[n+]2ccc(-c3ccccc3)c3ccc4c(-c5ccccc5)cc[n+]1c4c32 the IC50 was 7.16 µM (cell growth or viability, resazurin; 72 h).
With NS(=O)(=O)c1ccc(/N=N/c2ccc(O)c(/C=N/c3ccccn3)c2)cc1 the IC50 was 48.7 µM (cell growth or viability, MTT; 72 h).
For C#CCOC(=O)C(CC)C1CCC(C)C(C(C)C(O)C(C)C(=O)C(CC)C2OC3(C=CC(O)C4(CCC(C)(C5CCC(O)(CC)C(C)O5)O4)O3)C(C)CC2C)O1 (centres unmarked), the IC50 was 2 ± 0.4 µM (viability, MTT; 96 h).

Repeated from above:
For C=CC12COC(=O)C(=C)C1C1OC(=O)C(C)C1C(OC(=O)C(=C)CO)C2 (centres unmarked), the IC50 was 2 µM (cell growth or viability, MTT; 72 h).
With NS(=O)(=O)c1ccc(/N=N/c2ccc(O)c(/C=N/c3cccc(O)c3)c2)cc1 the IC50 was 9.63 µM (cell growth or viability, MTT; 72 h).
